Measurements pooled from the literature.
Each line is one published result; not all experiments were run side by side. Numbers after ± are the reported error.
U2AF2: U2AF2 148-342 (Homo sapiens, UniProt P26368)
UniProt P26368, sequence (whole entry, looked up): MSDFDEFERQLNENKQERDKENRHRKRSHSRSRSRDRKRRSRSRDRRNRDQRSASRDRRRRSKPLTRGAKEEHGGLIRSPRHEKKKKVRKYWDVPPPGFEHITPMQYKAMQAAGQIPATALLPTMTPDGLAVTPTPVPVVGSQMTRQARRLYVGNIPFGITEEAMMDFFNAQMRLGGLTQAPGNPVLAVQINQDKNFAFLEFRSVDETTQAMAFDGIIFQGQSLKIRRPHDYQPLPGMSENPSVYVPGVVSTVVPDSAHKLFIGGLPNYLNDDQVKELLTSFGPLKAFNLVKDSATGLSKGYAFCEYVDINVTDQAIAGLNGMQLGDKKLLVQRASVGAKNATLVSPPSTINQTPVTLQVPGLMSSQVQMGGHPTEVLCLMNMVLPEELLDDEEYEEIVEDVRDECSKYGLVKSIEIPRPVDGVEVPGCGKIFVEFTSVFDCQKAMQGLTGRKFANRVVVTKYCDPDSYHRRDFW
B1: aspC A106G/A218G/F210I/I29V/I33V/I68L/I71L/N30D/N64T/S135A/T100S/V136I/V375I (Escherichia coli, UniProt P00509); chain MFENITAAPADPILGLADLFRADERPGKVDLGVGVYKDETGKTPVLTSVKKAEQYLLENETTKTYLGLDGLPEFGRCTQELLFGKGSALINDKRARTAQSPGGTGGLRVAADFLAKNTSVKRVWVSNPSWPNHKAIFNSAGLEVREYAYYDAENHTLDFDALINSLNEAQAGDVVLFHGCCHNPTGIDPTLEQWQTLAQLSVEKGWLPLIDFAYQGFGRGLEEDAEGLRAFAAMHKELIVASSYSKNFGLYNERVGACTLVAADSETVDRAFSQMKAAIRANYSNPPAHGASVVATILSNDALRAIWEQELTDMRQRIQRMRQLFVNTLQEKGANRDFSFIIKQNGMFSFSGLTKEQVLRLREEFGVYAVASGRINVAGMTPDNMAPLCEAIVAVL
B2: SCO6712 V290N (Streptomyces coelicolor, UniProt Q9XAL8); chain AKGITARTAPAGGEVRHLKMYAEKLADGQMGYGFEKGKASVPGPLIEVNEGDTLHIEFTNTMDVRASLHVHGLDYEISSDGTAMNKSDVEPGGTRTYTWRTHKPGRRDDGTWRPGSAGYWHYHDHVVGTEHGTGGIRNGLYGPVIVRRKGDVLPDATHTIVFNDMTINNRKPHTGPDFEATVGDRVEIVMITHGEYYHTFHMHGHRWADNRTGILTGPDDPSRVIDNKITGPADSFGFQIIAGEGVGAGAWMYHCHNQSHSDMGMVGLFLVKKPDGTIPGYEPHEHGGATAKSGESGEPTGGAAAHEHEH
B3: DCK (Homo sapiens, UniProt P27707); chain MATPPKRSCPSFSASSEGTRIKKISIEGNIAAGKSTFVNILKQLCEDWEVVPEPVARWCNVQSTQDEFEELTMSQKNGGNVLQMMYEKPERWSFTFQTYACLSRIRAQLASLNGKLKDAEKPVLFFERSVYSDRYIFASNLYESECMNETEWTIYQDWHDWMNNQFGQSLELDGIIYLQATPETCLHRIYLRGRNEEQGIPLEYLEKLHYKHESWLLHRTLKTNFDYLQEVPILTLDVNEDFKDKYESLVEKVKEFLSTL
B4: enzyme (Pseudomonas aeruginosa, UniProt Q9I5Q5); chain MPRYLGLMSGTSLDGMDIVLIEQGDRTTLLASHYLPMPAGLREDILALCVPGPDEIARAAEVEQRWVALAAQGVRELLLQQQMSPDEVRAIGSHGQTIRHEPARHFTVQIGNPALLAELTGIDVVADFRRRDVAAGGQGAPLVPAFHQALFGDDDTSRAVLNIGGFSNVSLLSPGKPVRGFDCGPGNVLMDAWIHHQRGEHFDRDGAWAASGQVNHALLASLLADEFFAARGPKSTGRERFNLPWLQEHLARHPALPAADIQATLLELSARSISESLLDAQPDCEEVLVCGGGAFNTALMKRLAMLMPEARVASTDEYGIPPAWMEGMAFAWLAHRFLERLPGNCPDVTGALGPRTLGALYPA
B5: enzyme (Pseudomonas aeruginosa, UniProt Q9I6F6); chain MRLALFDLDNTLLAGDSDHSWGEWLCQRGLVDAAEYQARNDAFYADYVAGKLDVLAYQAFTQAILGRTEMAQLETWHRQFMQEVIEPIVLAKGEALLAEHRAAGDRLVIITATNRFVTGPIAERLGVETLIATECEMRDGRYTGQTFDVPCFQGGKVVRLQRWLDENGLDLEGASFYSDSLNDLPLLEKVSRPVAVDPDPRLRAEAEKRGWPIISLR
B6: SABP2 A105N (Nicotiana tabacum, UniProt Q6RYA0); chain MKEGKHFVLVHGACHGGWSWYKLKPLLEAAGHKVTALDLAASGTDLRKIEELRTLYDYTLPLMELMESLSADEKVILVGHSLGGMNLGLAMEKYPQKIYAAVFLNAFMPDSVHNSSFVLEQYNERTPAENWLDTQFLPYGSPEEPLTSMFFGPKFLAHKLYQLCSPEDLALASSLVRPSSLFMEDLSKAKYFTDERFGSVKRVYIVCTEDKGIPEEFQRWQIDNIGVTEAIEIKGADHMAMLCEPQKLCASLLEIAHKYN
B7: ispG (Escherichia coli, UniProt P62620); chain MHNQAPIQRRKSTRIYVGNVPIGDGAPIAVQSMTNTRTTDVEATVNQIKALERVGADIVRVSVPTMDAAEAFKLIKQQVNVPLVADIHFDYRIALKVAEYGVDCLRINPGNIGNEERIRMVVDCARDKNIPIRIGVNAGSLEKDLQEKYGEPTPQALLESAMRHVDHLDRLNFDQFKVSVKASDVFLAVESYRLLAKQIDQPLHLGITEAGGARSGAVKSAIGLGLLLSEGIGDTLRVSLAADPVEEIKVGFDILKSLRIRSRGINFIACPTCSRQEFDVIGTVNALEQRLEDIITPMDVSIIGCVVNGPGEALVSTLGVTGGNKKSGLYEDGVRKDRLDNNDMIDQLEARIRAKASQLDEARRIDVQQVEK
B8: enzyme (Arabidopsis thaliana, UniProt Q9FJN8); chain TSGGGYGDPSQKIDYVFKVVLIGDSAVGKSQILARYARDEFSLDSKATIGVEFQTRTLVIDHKSVKAQIWDTAGQERYRAVTSAYYRGAVGAMLVYDITRRQTFDHIPRWLEELRAHADKNIVIILIGNKSDLVDQRAIPTEDAKEFAEKEGLFFLETSAFNATNVESAFSTVLTEIFNIVNKKSLAASEDQENGNPGSLAGKKIDIVPGPGQVIPNKSNMCCNS
B9: enzyme (Salmonella enterica, UniProt P0A2K1); chain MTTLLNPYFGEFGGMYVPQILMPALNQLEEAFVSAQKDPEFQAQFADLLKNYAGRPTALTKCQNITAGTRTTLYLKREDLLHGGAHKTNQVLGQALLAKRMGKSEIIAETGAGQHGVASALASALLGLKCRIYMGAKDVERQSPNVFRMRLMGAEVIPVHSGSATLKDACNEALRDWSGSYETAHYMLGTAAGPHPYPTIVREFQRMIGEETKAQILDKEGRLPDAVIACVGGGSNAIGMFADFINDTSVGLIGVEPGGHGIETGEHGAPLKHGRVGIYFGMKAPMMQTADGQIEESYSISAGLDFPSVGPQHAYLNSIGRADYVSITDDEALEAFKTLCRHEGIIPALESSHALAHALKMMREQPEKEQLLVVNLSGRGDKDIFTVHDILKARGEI
B10: enzyme (Nicotiana tabacum, UniProt A0A1S3XCJ5); chain MLPQLSNSSGSGYSWMQDNSASCGNFSRNGRKQGPLNSVAPTERAQISSVDDLYDFICSGPLINKIGLTPEKVAESIDKWIEYGFRLCRLFQLNQLALNEPQKIRLYHYYIPVFLWCEQEISQHSSKFKDNEEIPPLVIGFSAPQGCGKTTLVFALEYLFKITGRKAATLSIDDFYLTAEEQAKLRENNPGNLLLEFRGNAGSHDLSLSVETLAELSKVTKEGVKMKLPRYDKSAYNGRGDRADPSTWPEVEGPLTVILFEGWMLGFKPLPPEAVKAVDPQLETVNKNLEAYYDAWYKYVKSWIIIKIHDPSYVYQWRLQAEIAMRADGNPGMSDEEVRDFVSRYLPAYKAYLPTLYSEGPTGADPEHVLLVEIDEGRNPILGS
UniProt P0AGF6, sequence (whole entry, looked up): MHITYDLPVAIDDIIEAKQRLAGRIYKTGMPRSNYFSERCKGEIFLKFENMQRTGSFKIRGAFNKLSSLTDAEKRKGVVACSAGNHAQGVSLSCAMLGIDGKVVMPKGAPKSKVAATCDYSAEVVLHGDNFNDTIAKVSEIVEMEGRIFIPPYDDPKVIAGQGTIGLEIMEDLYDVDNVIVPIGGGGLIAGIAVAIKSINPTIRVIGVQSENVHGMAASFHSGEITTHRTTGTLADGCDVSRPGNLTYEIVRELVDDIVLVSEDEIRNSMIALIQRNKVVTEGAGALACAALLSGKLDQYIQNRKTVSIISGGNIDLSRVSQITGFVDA
UniProt Q9R7D7, sequence (whole entry, looked up): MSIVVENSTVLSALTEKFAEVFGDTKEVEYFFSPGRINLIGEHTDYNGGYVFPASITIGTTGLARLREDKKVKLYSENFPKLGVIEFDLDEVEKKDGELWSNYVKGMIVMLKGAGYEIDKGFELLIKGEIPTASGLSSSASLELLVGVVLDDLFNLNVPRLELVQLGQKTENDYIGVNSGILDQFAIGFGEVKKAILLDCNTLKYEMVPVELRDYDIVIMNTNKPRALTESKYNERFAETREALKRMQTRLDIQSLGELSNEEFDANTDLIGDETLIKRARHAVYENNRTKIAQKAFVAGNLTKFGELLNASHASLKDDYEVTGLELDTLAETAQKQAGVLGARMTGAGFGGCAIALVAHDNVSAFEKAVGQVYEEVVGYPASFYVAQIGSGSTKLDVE

The kcat of `enzyme (Thermothielavioides terrestris, UniProt G2R650)` is reported as 4.63 ± 0.385 s⁻¹ (C=Cc1ccc(O)c(OC)c1; steady-state kinetics; pH 8, 45 °C).
With `B1` the kcat was 51 s⁻¹ (N[C@@H](CC(=O)O)C(=O)O; steady-state kinetics; pH 7.5, 25 °C, together with: PLP 20 µM).
With `enzyme (Escherichia coli, UniProt P0AGF6)` the kcat was 2.04 s⁻¹ (C[C@@H](O)[C@H](N)C(=O)O; steady-state kinetics; pH 7.5, 23 °C, apparent, not purified, together with: PLP 0.1 mM, L-Thr).
`enzyme (UniProt Q83XK4)` has a kcat of 0.085 ± 0.004 s⁻¹ (NC(=O)C1=CN([C@@H]2O[C@H](COP(=O)(O)OP(=O)(O)OC[C@H]3O[C@@H](n4cnc5c(N)ncnc54)[C@H](O)[C@@H]3O)[C@@H](O)[C@H]2O)C=CC1; steady-state kinetics; pH 7, 30 °C, cofactor varied).
The Kd of `AUUUUUACU (ssRNA)` is reported as 4.98 µM (U2AF2; sequencing of bound RNA; RNA; motif only).
For `B2 (SCO6712 V290N)`, the kcat was 1.16 ± 0.02 s⁻¹ (CCn1c(=NN=c2sc3cc(S(=O)(=O)O)ccc3n2CC)sc2cc(S(=O)(=O)O)ccc21; steady-state kinetics; pH 7, 37 °C, NaCl 150 mM, together with: O2 cosubstrate).
With `acsA D449E (Pseudomonas chlororaphis)` the kcat was 0.0517 ± 0.0117 s⁻¹ (O=C(O)CCC(F)(F)F; steady-state kinetics; pH 7).
The kcat of `B3 (DCK)` is reported as 0.152 s⁻¹ (Nc1ccn([C@@H]2O[C@H](CO)[C@@H](O)C2(F)F)c(=O)n1; steady-state kinetics; pH 7.6, per site).
`B4 (enzyme)` has a kcat of 46 ± 13 s⁻¹ (Nc1ncnc2c1ncn2[C@@H]1O[C@H](COP(=O)(O)OP(=O)(O)OP(=O)(O)O)[C@@H](O)[C@H]1O; steady-state kinetics; pH 7.5, apparent, together with: MgCl2).
The kcat of `enzyme (Lactococcus lactis, UniProt Q9R7D7)` is reported as 11 ± 0.5 s⁻¹ (Nc1ncnc2c1ncn2[C@@H]1O[C@H](COP(=O)(O)OP(=O)(O)OP(=O)(O)O)[C@@H](O)[C@H]1O; steady-state kinetics; pH 8, 24 °C).
The kcat of `B5 (enzyme)` is reported as 8.6 ± 0.2 s⁻¹ (N[C@H](COP(=O)(O)O)Cc1c[nH]cn1; steady-state kinetics; pH 7.8, 25 °C).
The kcat of `B6 (SABP2 A105N)` is reported as 0.483 s⁻¹ (CC(=O)Oc1ccc([N+](=O)[O-])cc1; steady-state kinetics; pH 7.2, 22 °C).
`B7 (ispG)` gave a kcat of 0.335 s⁻¹ (C[C@]1(CO)O[C@@H]1COP(=O)(O)OP(=O)(O)O; steady-state kinetics).
`B8 (enzyme)` gave a kcat of 0.0367 s⁻¹ (Nc1nc2c(ncn2[C@@H]2O[C@H](COP(=O)(O)OP(=O)(O)OP(=O)(O)O)[C@@H](O)[C@H]2O)c(=O)[nH]1; steady-state kinetics; pH 7.5, 30 °C).
With `B9 (enzyme)` the kcat was 4.23 ± 0.4 s⁻¹ (N[C@@H](CO)C(=O)O; steady-state kinetics; pH 7.8, 22 °C, apparent).
`UGUUUUCAG (ssRNA)` gave a Kd of 2.6 µM (U2AF2; sequencing of bound RNA; RNA; motif only).
`gdh E198C (Bacillus subtilis)` has a kcat of 28.4 ± 1.31 s⁻¹ (NC(=O)c1ccc[n+]([C@@H]2O[C@H](COP(=O)(O)OP(=O)(O)OC[C@H]3O[C@@H](n4cnc5c(N)ncnc54)[C@H](O)[C@@H]3O)[C@@H](O)[C@H]2O)c1; steady-state kinetics; pH 8, 45 °C).
`B10 (enzyme)` has a kcat of 27.6 ± 1.4 s⁻¹ (O=C(O)[C@H](O)CO; steady-state kinetics; pH 7.8, 30 °C).
`enzyme (Ectocarpus siliculosus, UniProt D7FYY3)` has a kcat of 16.5 ± 0.3 s⁻¹ (C=C(OP(=O)(O)O)C(=O)O; steady-state kinetics; pH 5.5, 25 °C, together with: 2 mM ADP).
With `enzyme (Bordetella petrii, UniProt A9I5G2)` the kcat was 8.65 ± 0.583 s⁻¹ (CSCC[C@@H](NC(C)=O)C(=O)O; steady-state kinetics; pH 7, 35 °C).
For `spt R378K (Sphingomonas paucimobilis)`, the kcat was 0.35 ± 0.01 s⁻¹ (CCCCCCCCCCCC(=O)SCCNC(=O)CCNC(=O)[C@H](O)C(C)(C)COP(=O)(O)OP(=O)(O)OC[C@H]1O[C@@H](n2cnc3c(N)ncnc32)[C@H](O)[C@@H]1OP(=O)(O)O; steady-state kinetics; together with: PLP).

Repeated from above:
The kcat of `B3 (DCK)` is reported as 0.152 s⁻¹ (Nc1ccn([C@@H]2O[C@H](CO)[C@@H](O)C2(F)F)c(=O)n1; steady-state kinetics; pH 7.6, per site).
With `enzyme (Bordetella petrii, UniProt A9I5G2)` the kcat was 8.65 ± 0.583 s⁻¹ (CSCC[C@@H](NC(C)=O)C(=O)O; steady-state kinetics; pH 7, 35 °C).
